Assay results pooled from the literature.
Each numbered part is a random draw from the data of one study; scales do not carry over between parts.

Block 1
Target: Interferon regulatory factor 3, full length, phosphomimetic (IRF3, Homo sapiens, UniProt Q14653, residues 1-427, S386D/S396D/S398D/S402D/T404D/S405D)
Method: protein-binding microarray
Form: double-stranded DNA, one strand shown
Matrix: in vitro
Tested at: 2540 nM top
Notes: 60-bp whole probe
With: salmon DNA 0.4 mg/ml
Reference: random background probes
Direction: higher = stronger binding
Residues (chain): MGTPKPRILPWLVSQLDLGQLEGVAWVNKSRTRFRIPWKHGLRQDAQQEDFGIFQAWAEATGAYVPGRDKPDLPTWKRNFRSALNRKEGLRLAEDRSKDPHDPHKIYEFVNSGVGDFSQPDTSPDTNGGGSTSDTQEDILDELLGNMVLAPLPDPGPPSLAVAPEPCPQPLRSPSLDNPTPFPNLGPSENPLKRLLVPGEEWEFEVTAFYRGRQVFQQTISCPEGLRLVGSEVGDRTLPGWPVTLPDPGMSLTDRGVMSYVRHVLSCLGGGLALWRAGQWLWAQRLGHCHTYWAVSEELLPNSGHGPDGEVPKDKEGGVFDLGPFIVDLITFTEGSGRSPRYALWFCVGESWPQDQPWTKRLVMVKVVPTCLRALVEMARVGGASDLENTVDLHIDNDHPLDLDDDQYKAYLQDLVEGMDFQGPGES
Sequence	fitted relative affinity
GCCTAGCACGTCGGACTGGACACTGGGGACGTGCTAGTCTTGATTCGCTTGACGCTGCTG	-0.377 z-score
GCCTAGCACGACGGTCTCCGTTTCCTGACGTGCTAGGTCTTGATTCGCTTGACGCTGCTG	3.42 z-score
GCCTAGCACGACGGTCTGGGTTTCGGGACGTGCTAGGTCTTGATTCGCTTGACGCTGCTG	1.15 z-score
GCCTAGCACTTAGGTATCGGGACTGAGTTAGTGCTAGTCTTGATTCGCTTGACGCTGCTG	1.32 z-score

Block 2
Target: Histone acetyltransferase KAT6A, both winged helices, GST fusion (KAT6A, Homo sapiens, UniProt Q92794, residues 1-181)
Method: protein binding microarray
Form: double-stranded DNA, one strand shown
Matrix: in vitro
Tested at: not given
Notes: 8-mer, flanks averaged, mean of 2 arrays, mostly near background
Reference: not given
Direction: higher = stronger binding
Target sequence (chain): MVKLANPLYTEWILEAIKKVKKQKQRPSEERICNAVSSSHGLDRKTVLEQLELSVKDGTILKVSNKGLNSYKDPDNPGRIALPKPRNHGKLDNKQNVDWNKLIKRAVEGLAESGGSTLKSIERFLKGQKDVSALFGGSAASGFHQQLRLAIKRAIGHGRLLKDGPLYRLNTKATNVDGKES
Sequence	E-score
TAGCGGCA	0.306
CGTCGTCA	0.0423
AGATAGGC	-0.255
AGGGGACA	-0.101

Block 3
Target: Centromere-binding protein 1, full length, His-tagged (CBF1, Saccharomyces cerevisiae, UniProt P17106, residues 1-351)
UniProt P17106, sequence (whole entry, looked up): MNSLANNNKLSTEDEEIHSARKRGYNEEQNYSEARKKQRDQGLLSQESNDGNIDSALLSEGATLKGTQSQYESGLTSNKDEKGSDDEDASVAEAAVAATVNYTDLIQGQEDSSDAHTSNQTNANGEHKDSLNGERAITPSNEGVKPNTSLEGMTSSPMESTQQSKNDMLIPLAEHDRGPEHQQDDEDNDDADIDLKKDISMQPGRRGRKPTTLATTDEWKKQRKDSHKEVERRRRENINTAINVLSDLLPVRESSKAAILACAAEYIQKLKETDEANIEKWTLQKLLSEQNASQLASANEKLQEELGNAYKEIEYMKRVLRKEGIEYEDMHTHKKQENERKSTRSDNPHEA
Method: competition protein-binding microarray
Form: double-stranded DNA, one strand shown
Matrix: in vitro
Tested at: 2 µM
Notes: whole 60-bp probe, lowest competitor level
With: Pho4 competitor, 0.05 µM
Direction: higher = stronger binding
Sequence	fluorescence intensity [a.u.]
CATACCCAACCTTGCAAAGTGGGTGAAGATATTTGTGTCTTGATTCGCTTGACGCTGCTG	64.5
TTATTCCGCCGATTCCACGGGTGCGGTGCTACCAAGGTCTTGATTCGCTTGACGCTGCTG	54
AAATTACTAAGTTTTCACGTGCAATACCCCGTATGAGTCTTGATTCGCTTGACGCTGCTG	1090

Single results of other studies
Molecule	target	test	test system	conditions	how to read	endpoint	value
PhoQ, residues 284 288 289 292 302 303 QWQEDG	PhoP, residues 12 14 15 18 19 SPWRL (Escherichia coli, UniProt P23836)	Sort-seq, item: YFP reporter	E. coli	PhoQ-PhoP variant library, with: 10 µM Mg2+	reference: high Mg2+ state, higher = stronger signaling	fold induction	1.3
